Published values collected from several papers.
Lines come from different studies, so protocols differ. Numbers after ± are the reported error.
UniProt P48047, sequence (whole entry, looked up): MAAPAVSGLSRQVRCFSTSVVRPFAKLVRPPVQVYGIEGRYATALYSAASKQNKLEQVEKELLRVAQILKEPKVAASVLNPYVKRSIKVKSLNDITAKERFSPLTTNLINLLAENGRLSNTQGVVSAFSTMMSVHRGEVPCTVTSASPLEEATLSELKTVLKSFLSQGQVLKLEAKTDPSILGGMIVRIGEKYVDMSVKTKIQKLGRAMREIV
UniProt P49238, sequence (whole entry, looked up): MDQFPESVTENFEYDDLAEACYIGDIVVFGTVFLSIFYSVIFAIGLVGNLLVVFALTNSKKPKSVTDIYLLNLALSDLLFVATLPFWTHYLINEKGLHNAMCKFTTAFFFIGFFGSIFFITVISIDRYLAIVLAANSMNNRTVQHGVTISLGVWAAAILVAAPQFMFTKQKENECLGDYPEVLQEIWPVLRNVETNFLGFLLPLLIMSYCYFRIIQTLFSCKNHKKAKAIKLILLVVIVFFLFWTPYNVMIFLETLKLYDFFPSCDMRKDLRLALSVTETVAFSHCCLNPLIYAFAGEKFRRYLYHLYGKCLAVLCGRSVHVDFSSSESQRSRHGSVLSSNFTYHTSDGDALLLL

COc1ncnn2ccc(-c3cnc4nc(C)n(Cc5nnc([C@@H](C)F)o5)c4c3)c12
incidence of Stomatitis (human patients; oral, dose not given, all-grade adverse drug reaction): 21.4%

O=C(c1ccc(F)c(F)c1Nc1ccc(I)cc1F)N1CC(O)([C@@H]2CCCCN2)C1
adverse events (patients aged 2 to 6 years; oral, dose not given): 100%

C[C@H]1CN(C(=O)CC#N)[C@]12CCN(c1ncnc3[nH]ccc13)C2
AUC at NOAEL (rat, female; oral, 30 mg/kg repeated, 3 months): 15200 ng·h/mL

C[C@H]1CN(c2n[nH]c3nc(N[C@H]4CC[C@H](NS(=O)(=O)CCC(F)(F)F)CC4)ncc23)CCO1
remaining binding (ATP synthase peripheral stalk subunit OSCP, mitochondrial (Homo sapiens, UniProt P48047); Kinobeads competition, item: ATP5O; 0.16 µM, unit not given; baseline: vehicle): 1.08

CO[C@H]1C[C@@H]2CC[C@@H](C)[C@@](O)(O2)C(=O)C(=O)N2CCCC[C@H]2C(=O)O[C@H]([C@H](C)C[C@@H]2CC[C@@H](OC(=O)NCCOCCOCCOCCOCCOCCOCCOCCOCCC(=O)N3CCc4cc(Cn5nc(-c6ccc7oc(N)nc7c6)c6c(N)ncnc65)ccc4C3)[C@H](OC)C2)C[C@@H](O)[C@H](C)/C=C(\C)[C@@H](O)[C@@H](OC)C(=O)[C@H](C)C[C@H](C)/C=C/C=C/C=C/1C
maculopapular rash incidence (patients with advanced solid tumours; intravenous, 12 mg weekly, grade 3 or higher): 0%

CC[C@H](C)[C@@H]1NC(=O)[C@@H]2CCCN2C(=O)[C@H](CC(C)C)NC(=O)[C@H](CC(C)C)NC(=O)CNC(=O)[C@@H](NC(=O)[C@@H](NC(=O)[C@H](CC(=O)O)NC(=O)CNC(=O)[C@@H](NC(=O)[C@H](C)NC(=O)CNC(=O)[C@H](CCCCN)NC(=O)[C@H](CC(C)C)NC(=O)[C@H](CC(C)C)NC(=O)[C@H](CCCCN)NC(=O)CNC(=O)[C@@H](NC(=O)[C@@H](N)CC(C)C)C(C)C)C(C)C)C(C)C)CSSC[C@@H](C(=O)O)NC1=O
log2 fold change (RNA-seq, item: H2-T23 mRNA; mouse traumatic brain injury, frontal cortex and hippocampus; dose not given; baseline: TBI plus compound vs TBI): -1.58

COc1c(C)cnc(Cn2cc(C#CCCOP(=O)(O)O)c3c(Cl)nc(N)nc32)c1C
STD10 (rat or dog; concentration not given, twice weekly, sensitive species): 10 mg/kg

CC[C@H](C)[C@H](NC(=O)[C@H](Cc1ccccc1)NC(=O)[C@H](CCC(=O)O)NC(=O)[C@H](CCCNC(=N)N)NC(=O)[C@H](C)NC(=O)[C@H](C)NC(=O)[C@H](CCC(N)=O)NC(=O)[C@H](CCC(=O)O)NC(=O)[C@H](CCC(=O)O)NC(=O)[C@H](CC(C)C)NC(=O)[C@H](Cc1ccc(O)cc1)NC(=O)[C@H](CO)NC(=O)[C@H](CO)NC(=O)[C@@H](NC(=O)[C@H](CC(=O)O)NC(=O)[C@H](CO)NC(=O)[C@@H](NC(=O)[C@H](Cc1ccccc1)NC(=O)[C@@H](NC(=O)CNC(=O)[C@H](CCC(=O)O)NC(=O)[C@H](C)NC(=O)CCc1c[nH]cn1)[C@@H](C)O)[C@@H](C)O)C(C)C)C(=O)N[C@@H](C)C(=O)N[C@@H](Cc1c[nH]c2ccccc12)C(=O)N[C@@H](CC(C)C)C(=O)N[C@H](C(=O)N[C@@H](CCCNC(=N)N)C(=O)NCC(=O)N[C@@H](CCCNC(=N)N)C(=O)N[C@@H](CCCCNC(=O)COCCOCCNC(=O)COCCOCCNC(=O)CC[C@H](NC(=O)CCCCCCCCCCCCCCCCC(=O)O)C(=O)O)C(=O)NCC(=O)NCC(=O)N[C@@H](CO)C(=O)N[C@@H](CCCCNc1c(NCCCCCN(O)C(=O)CCC(=O)NCCCCCN(O)C(=O)CCC(=O)NCCCCCN(O)C(C)=O)c(=O)c1=O)C(=O)O)C(C)C [zirconium-89 labelled]
tissue uptake (ex vivo gamma counting; rat, skin at injection site; subcutaneous, 3 nmol/kg, 168 h): 0.5 %ID/g

O=S(=O)(Nc1ccccc1)c1ccc(NC(=S)Nc2ccccc2)cc1
blood chemistry level (item: Bu; female mouse, blood; oral, 5 mg/kg daily, 14 days): 0.1 mg/dL

COc1cc(Nc2ncc(F)c(Nc3ccc4c(n3)NC(=O)C(C)(C)O4)n2)cc(OC)c1OC
IC50 (CX3C chemokine receptor 1 (CX3CR1, Homo sapiens, UniProt P49238)): > 10 µM

CC(C)C[C@H](NC(=O)[C@H](CCCCN)NC(=O)OCC1c2ccccc2-c2ccccc21)C(=O)N[C@H](C(=O)N[C@@H](Cc1ccccc1)C(=O)N[C@@H](Cc1ccccc1)C(=O)N[C@@H](CCCCN)C(=O)NCC(=O)N[C@@H](Cc1ccccc1)C(=O)N[C@@H](C)C(=O)N[C@@H](Cc1c[nH]c2ccccc12)C(=O)N[C@@H](CC(N)=O)C(=O)N[C@H](C(=O)N[C@H]1CSSC[C@@H](C(=O)N[C@@H](Cc2c[nH]cn2)C(=O)N[C@@H](CCCNC(=N)N)C(=O)N[C@@H](CCCNC(=N)N)C(=O)N[C@@H](C)C(=O)N[C@@H](CC(N)=O)C(N)=O)NC(=O)[C@H](C(C)C)NC(=O)[C@H](CCCNC(=N)N)NC(=O)[C@H](C(C)C)NC(=O)CNC(=O)[C@H](CC(N)=O)NC(=O)[C@H](CCCNC(=N)N)NC(=O)[C@H](Cc2ccc(O)cc2)NC(=O)[C@H](C(C)C)NC1=O)C(C)C)C(C)C
MCV (ICR mouse, blood; intramammary, 10 mg/kg, day 5, 3 d dosing): 41 ± 0.77 fL

COc1cc2c(Oc3ccc4[nH]c(C)cc4c3F)ccnc2cc1OCC1(N)CC1
grade 3 Diarrhoea (paediatric recurrent refractory sarcoma; 10 mg): 0%

CN1CC[C@@H](c2c(O)cc(O)c3c(=O)cc(-c4ccc(C(F)(F)F)cc4Cl)oc23)[C@@H]1CO
patients with adverse event (item: Vomiting; AML; oral, 200 mg, intermittent dosing): 10%

Some of these lines once more:
CC[C@H](C)[C@@H]1NC(=O)[C@@H]2CCCN2C(=O)[C@H](CC(C)C)NC(=O)[C@H](CC(C)C)NC(=O)CNC(=O)[C@@H](NC(=O)[C@@H](NC(=O)[C@H](CC(=O)O)NC(=O)CNC(=O)[C@@H](NC(=O)[C@H](C)NC(=O)CNC(=O)[C@H](CCCCN)NC(=O)[C@H](CC(C)C)NC(=O)[C@H](CC(C)C)NC(=O)[C@H](CCCCN)NC(=O)CNC(=O)[C@@H](NC(=O)[C@@H](N)CC(C)C)C(C)C)C(C)C)C(C)C)CSSC[C@@H](C(=O)O)NC1=O
log2 fold change (RNA-seq, item: H2-T23 mRNA; mouse traumatic brain injury, frontal cortex and hippocampus; dose not given; baseline: TBI plus compound vs TBI): -1.58
